Measured values from different studies.
“And” joins repeats or separate records; there may be more than shown. ± marks the error that the study gave.

CCn1nc(Cl)c2c1-c1cnc(N)c(c1)O[C@H](C)c1cc(F)ccc1-c1nn(C)cc1C2 — Emax (Ba/F3 EML4-ALK v3; cell viability): 100%
O=C(Nc1ccc(Cl)c(C(F)(F)F)c1)C1(C(=O)Nc2ccc3c(/C=C/c4ccccn4)n[nH]c3c2)CC1 — GI50 (Ba/F3 TEL-VEGFR1; cell growth, CCK-8): > 10000 nM
CC(C)(C)c1cc(-c2ccc3cccnc3n2)nc(-c2ccc3cccnc3n2)c1.COc1ccncc1.[Cl-].[Cl-].[Ru+2].c1ccc2cc3nc4c5cccnc5c5ncccc5c4nc3cc2c1 — EC50 (SK-MEL-28; photocytotoxicity; visible light 400-700 nm, 100 J/cm2, oxygen 18.5%): 591 ± 6 nM
CC(C)C[C@@H]1NC(=O)[C@H](CC(C)C)NC(=O)[C@H](Cc2c[nH]c3ccccc23)NC(=O)[C@H](CO)NC(=O)[C@H](Cc2c[nH]c3ccccc23)NC(=O)[C@@H]2CCCN2C(=O)[C@H](CC(C)C)NC(=O)[C@H](Cc2c[nH]cn2)NC(=O)[C@@H]2CCCN2C(=O)[C@H](CC(N)=O)NC(=O)[C@H](C)NC(=O)[C@H](Cc2ccc(O)cc2)NC(=O)[C@H](CS)NC(=O)[C@H](CCCCNC(=O)CN2CCN(CC(=O)O)CCN(CC(=O)O)CCN(CC(=O)O)CC2)NC1=O [lutetium-177 labelled] — dead cells (4T1; flow cytometry; 0.4 Bq/cell, 48 h): 32%
CCCCCCCCCCCC(=O)N[C@H](CO)C[C@@H](O)c1ccccc1 — ceramide level (HeLa; CERT activity, HPLC-MS/MS lipidomics, refers to: ceramide 16; 1 µM, 24 h, not cell-number normalised): 20200 pmol/sample and 23100 pmol/sample and 22000 pmol/sample
Cn1ncc2cc(-c3cncc(Cl)c3N3CCC4(CCNC4=O)CC3)ccc21 — log2 fold change (LS174T; gene expression, microarray, refers to: SEMA4D mRNA; concentration not given, 24 h; reference: untreated cells): 2.05
Fc1cncc(-c2ccc3[nH]c4ncnc(N[C@H]5CC[C@H](N6CCOCC6)CC5)c4c3c2)c1 — c-MYC level (TMD8 ibrutinib-resistant; immunoblot; concentration not given, 24 h): decreased
CC(C)(C)c1cc(-c2ccc3cc4ccccc4nc3n2)nc(-c2ccc3cc4ccccc4nc3n2)c1.Cc1ccncc1.[Cl-].[Cl-].[Ru+2].c1ccc2cc3nc4c5cccnc5c5ncccc5c4nc3cc2c1 — phototoxicity index (A-375; resazurin; with: light 523 nm, 100 J/cm2; reference: dark EC50 over light EC50): 4
CNS(=O)(=O)Nc1nccc(Cc2c(C)c3ccc(Oc4ncccc4F)cc3oc2=O)c1F — IC50 (MCF-10A; cell viability; 7 days): 4.42 nM
CCN(CC)CC(=O)Nc1cccc(-n2cc(-c3ccc4ccc(-c5cn(-c6cccc(NC(=O)CN(CC)CC)c6)nn5)cc4c3)nn2)c1 — fold regulation (RCC4; PCR angiogenesis array, refers to: PF4; 5 x IC50, 2 h, normoxia; reference: untreated): 1.17
COc1ccc(C([O-])=CC(=O)c2ccc(C(C)(C)C)cc2)cc1.[Ru+2].c1ccc(-c2ccnc3c2ccc2c(-c4ccccc4)ccnc23)cc1.c1ccc(-c2ccnc3c2ccc2c(-c4ccccc4)ccnc23)cc1 — phototoxicity index (HL-60; reference: dark IC50 over light IC50): 2
O=C1CC[C@H](N2Cc3cc(-c4ccn5ncc(Cl)c5n4)ccc3C2=O)C(=O)N1 — log2 fold change (MOLM-13; protein level, TMT proteomics, refers to: AAK1; 1 µM, 6 h; reference: DMSO): -0.000139
COc1cccc(OC)c1-c1cc(C(=O)NC2(C(=O)O)C3CC4CC(C3)CC2C4)nn1-c1ccc(C(=O)NCCNC(=O)[C@H](CCCCNC(=O)[C@H](CC(C)C)NC(=O)C2OC2C(=O)O)NC(=O)CN2CCN(CC(=O)[O-])CCN(CC(=O)[O-])CCN(CC(=O)[O-])CC2)cc1C(C)C.[177Lu+3] (mixture of isomers) — adduct formation (HT-29; SDS-PAGE autoradiography; concentration not given, 4 h; reference: radioactive signal): 53.8%
COc1ccc(NC(=O)c2ccc3[nH]c(-c4ccc(N(C)C)cc4)nc3c2)cn1 — dead cell to confluence ratio (HCT116; IncuCyte; concentration not given, 22 h): 115 and 229 and 447
CCN(C(=O)c1cc(F)ccc1Oc1nncnc1N1CCC2(C1)CN([C@H](CCCN(C)CCOC)C(C)C)C2)C(C)C — GI50 (A-375; cell growth or viability; 7 days): > 10000 nM
COC(=O)c1cc(NC2=NC(=O)C(=Cc3ccc(N(C)C)cc3)S2)ccc1OC(C)=O — metabolite level (MCF7; GC-MS, refers to: L-Glutamic acid; 1 µM; reference: DMSO): -1.48 fold change
Cc1ncsc1-c1ccc(C(C)NC(=O)C2CC(O)CN2C(=O)C(NC(=O)CCCCCCCCCCN2CCCC(Nc3ncc(Cl)c(Nc4ccccc4S(=O)(=O)C(C)C)n3)C2)C(C)(C)C)cc1 (stereo not shown) — log2 fold change (22Rv1; RNA-seq, refers to: ZNF75A mRNA; concentration not given; reference: DMSO): -2.12
CN(C)Cc1nc(Nc2ccc(-c3cnc4cc(F)ccn34)c3c2C(=O)NC3)ccc1C1CCOC1 (stereo not shown) — CD80-positive cells (mouse BMDC; flow cytometry; 10 µM): 68%
CN(C)c1ccc(-n2cc(COC(=O)[C@@]3(C)C=C(C(=O)OC(C)(C)C)C(=O)CC3)nn2)cc1 — luminescence (AP-1 reporter HEK293; AP-1 reporter gene, luciferase reporter; 1 µM, 6 h, with: PMA 6 ng/mL; higher = more transcription): 10100 a.u.
Cc1nc2c(F)cc(-c3nc(Nc4ccc(CNC(=O)CCCCCCC(=O)NO)cc4)ncc3F)cc2n1C(C)C — inhibition (4T1; cell growth or viability, CCK-8; 0.3 µM, 48 h): 101%
CN1CCCNC(=O)c2cccc(c2)C(=O)NCCCN(C)CCCNc2cccc3c2C(=O)c2cccc(c2C3=O)NCCC1 — log2 fold change (SAS; RNA-Seq, refers to: ZFYVE27 mRNA; 5 µM, 24 h; reference: untreated cells): -1.89
Cc1cc(Cl)cc(-c2ccnc3cc(CN4C(=O)C5C(C4=O)C5(C)C)sc23)c1C[C@@H]1CNCCO1 (stereo partly shown) — necrotic cells (CHP-212 resistant; annexin V/PI flow cytometry; 0.3 µM, 48 h): 2.04% and 1.98% and 3.09%
Cc1ccncc1.[Cl-].[Cl-].[Ru+2].c1cc(-c2ccc3cccnc3n2)nc(-c2ccc3cccnc3n2)c1.c1ccc2cc3nc4c5cccnc5c5ncccc5c4nc3cc2c1 — EC50 (A-375; resazurin; with: light 733 nm, 9 mW, 100 J/cm2): 1620 nM
COC(=O)[C@@]1(C)C=C(C(=O)Nc2cccc(C(=O)Nc3ccc(Nc4nccc(-c5cccnc5)n4)c(C)c3)c2)C(=O)CC1 — reporter activity (AP1 reporter HEK293; AP1 reporter gene, inhibitor; 10 µM, 6 h, compound kept in medium, unit not given, with: PMA; reference: PMA alone): 0.0506
CCOc1cncc(-c2ccc(NC(=O)C3(c4ccnc(NS(=O)(=O)C5CC5)n4)CCOCC3)nc2)n1 — IC50 (CHP-212; cell growth or viability, ATP luminescence; 72 h): 10000 nM
C=CC(=O)N1[C@H](c2ccc3c(c2)OCO3)c2[nH]c3ccccc3c2C[C@@H]1C(=O)NC — mean neuron degeneration (rat DRG neurons; 0.04115 µM, 48 h, with: vincristine 40 nM): 77.2%
N#Cc1cccc(/C=C/C(=O)c2ccc(O)cc2)c1 — fold change (U-87 MG; refers to: SLC10A5; concentration not given; reference: untreated): 0.033
CC(=O)OC[C@H]1O[C@@H](n2cc(CSc3nc4ccccc4n3Cc3cn([C@@H]4O[C@H](COC(C)=O)[C@@H](OC(C)=O)C(OC(C)=O)[C@H]4OC(C)=O)nn3)nn2)[C@H](OC(C)=O)C(OC(C)=O)[C@@H]1OC(C)=O (stereo in doubt) — cytotoxicity (Caco-2; MTT; 15.6 ppm): 75.6%
COCCn1cc(COc2cccc(Cc3cnc(NC(=O)CSc4nc(C)cc(C)n4)s3)c2)nn1 — inhibition (PC-3M-luc; colony formation, colony forming; 25 µM): 44 ± 7.8%
C=CC(=O)N1CCCC(n2c(=O)c3ncccc3n(Cc3ccc(Oc4ccccc4)cc3)c2=O)C1 (stereo not shown) — log2 fold change (Rec1; refers to: EMB; concentration not given; reference: untreated): -0.24
CC(C)c1ccc(N(C)c2ccc3c(c2)OCC[C@H]3CNc2cnccc2C(=O)O)cc1 — IC50 (COLO 205; cell growth or viability, ATP luminescence; 7 days): 11.5 nM
